Assay results from different studies.
Lines come from different studies, so protocols differ. Values joined by “and” are separate records of one study, mostly repeats; a detail may differ. ± gives the spread as reported.
UniProt P06276, sequence (whole entry, looked up): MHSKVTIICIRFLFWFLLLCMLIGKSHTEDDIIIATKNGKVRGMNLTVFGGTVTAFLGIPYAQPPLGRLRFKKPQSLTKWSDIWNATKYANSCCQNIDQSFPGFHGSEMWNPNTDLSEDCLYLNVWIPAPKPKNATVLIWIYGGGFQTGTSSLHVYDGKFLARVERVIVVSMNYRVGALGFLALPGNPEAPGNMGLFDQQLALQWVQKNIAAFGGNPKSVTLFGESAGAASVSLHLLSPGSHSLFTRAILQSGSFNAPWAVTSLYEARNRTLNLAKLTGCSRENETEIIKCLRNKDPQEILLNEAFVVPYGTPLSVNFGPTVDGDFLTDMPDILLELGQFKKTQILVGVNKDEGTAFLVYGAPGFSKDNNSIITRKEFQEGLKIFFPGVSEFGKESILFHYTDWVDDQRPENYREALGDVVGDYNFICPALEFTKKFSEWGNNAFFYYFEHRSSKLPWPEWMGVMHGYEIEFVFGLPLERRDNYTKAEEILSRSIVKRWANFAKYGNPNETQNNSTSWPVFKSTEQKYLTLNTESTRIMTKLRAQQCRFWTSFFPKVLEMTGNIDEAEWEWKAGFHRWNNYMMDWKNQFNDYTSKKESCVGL

O=[N+]([O-])c1cc2c3c(ccc2c2ccccc12)[C@@H](O)[C@H](O)C=C3
rats with mammary tumours (female Sprague-Dawley rats; intramammary, 12.3 µmol per rat, 32 weeks, others): 0%

COc1cc2c(cc1OC)CN(CCc1ccc(NC(=O)c3cccc4c(=O)c5cccc(OC)c5[nH]c34)cc1)CC2
elimination rate constant (CD-1 mouse, male, plasma; intraperitoneal, 1 mg/kg): 1.46e-05 s⁻¹

O=C(O)CCCOc1ccc(F)cc1-c1cc(-c2ccccc2C(F)(F)F)n(-c2ccccc2)n1
leukocyte differential (item: Basophils; Crl:CD(SD) rats, female, blood; iv, 25 µg/kg, 14 days): 0.2 ± 0.1%

O=C(NCCCNc1nc(Nc2cccc(NC(=O)N3CCCC3)c2)ncc1I)c1cccs1
solubility (aqueous buffer; 24 h, pH 6.8, 37 °C): < 1 µg/mL

CCc1ccc(CC/C=C/c2ccc3c(c2)C(=O)CC3)cc1
CHCM (Sprague-Dawley rat, male; oral, 120 mg/kg/day, 14 days): 315 g/L

CC[C@H](C)[C@H](NC(=O)[C@H](Cc1ccccc1)NC(=O)[C@H](CCC(=O)O)NC(=O)[C@H](CCCNC(=N)N)NC(=O)[C@H](C)NC(=O)[C@H](C)NC(=O)[C@H](CCC(N)=O)NC(=O)[C@H](CCC(=O)O)NC(=O)[C@H](CCC(=O)O)NC(=O)[C@H](CC(C)C)NC(=O)[C@H](Cc1ccc(O)cc1)NC(=O)[C@H](CO)NC(=O)[C@H](CO)NC(=O)[C@@H](NC(=O)[C@H](CC(=O)O)NC(=O)[C@H](CO)NC(=O)[C@@H](NC(=O)[C@H](Cc1ccccc1)NC(=O)[C@@H](NC(=O)CNC(=O)[C@H](CCC(=O)O)NC(=O)[C@H](C)NC(=O)CCc1cnc[nH]1)[C@@H](C)O)[C@@H](C)O)C(C)C)C(=O)N[C@@H](C)C(=O)N[C@@H](Cc1c[nH]c2ccccc12)C(=O)N[C@@H](CC(C)C)C(=O)N[C@H](C(=O)N[C@@H](CCCNC(=N)N)C(=O)NCC(=O)N[C@@H](CCCNC(=N)N)C(=O)N[C@@H](CCCCNC(=O)COCCOCCNC(=O)COCCOCCNC(=O)CC[C@H](NC(=O)CCCCCCCCCCCCCCCCC(=O)O)C(=O)O)C(=O)NCC(=O)NCC(=O)N[C@@H](CO)C(=O)N[C@@H](CCSC)C(=O)N[C@H](C(=O)N[C@@H](CCCCNc1c(NCCCCCN(O)C(=O)CCC(=O)NCCCCCN(O)C(=O)CCC(=O)NCCCCCN(O)C(C)=O)c(=O)c1=O)C(=O)O)C(C)C)C(C)C [zirconium-89 labelled]
tissue uptake (ex vivo gamma counting; male Sprague-Dawley rats, intestine; intravenous, 5 MBq (1 nmol), 24 h): 0.115 %ID/g and 0.105 %ID/g and 0.145 %ID/g

O=S(=O)(Nc1ccccc1)c1ccc(NC(=S)Nc2ccccc2)cc1
haematocrit (male mouse, blood; oral, 80 mg/kg daily, 14 days): 44%

COc1cc2c(Oc3ccc4[nH]c(C)cc4c3F)ccnc2cc1OCC1(N)CC1
grade 3 Fever (paediatric recurrent refractory sarcoma; 8 mg/kg): 0%

C[C@@H]1CC[C@H]2[C@@H](C)C(=O)O[C@@H]3O[C@@]4(C)CC[C@@H]1[C@]32OO4
IC50 (Plasmodium falciparum; W2): 0.008 µM

Clc1ccc(-c2ccc(Cl)c(Cl)c2)cc1Cl
literature range factor (PDMS-water partitioning; PCB compilation; relative to: maximum over minimum K): 2

Cc1cc(C)c(CNC(=O)c2cc(Cl)c3c(c2C)O[C@@](C)([C@H]2CC[C@H](N(C)C)CC2)O3)c(=O)[nH]1
incidence of atrial fibrillation (relapsed/refractory NHL patients; dose not given, trial, safety set, treatment-related TEAE grade 5): 0%

O=C(Nc1ccccc1)C1CCN(C(=O)Oc2cccnc2)CC1
adverse event Agitation (healthy women; oral, 60 mg, 7 days): 0%

CCN1[C@@H](C(=O)NC23CCC(C(=O)O)(CC2)CC3)[C@H](c2cccc(Cl)c2F)[C@]2(C(=O)Nc3cc(Cl)ccc32)C12CCCCC2
Headache incidence (patients with advanced solid tumours; oral, dose not given, all doses): 4.8%

O=C(CN1C2=NCCN2c2ccccc21)c1ccc(-c2ccccc2)cc1
IC50 (Cholinesterase (BCHE, Homo sapiens, UniProt P06276); inhibitor, fluorometric): 9.8 ± 1.83 µM

CCOC(=O)N1CCC(=C2c3ccc(Cl)cc3CCc3cccnc32)CC1
IC50 (Plasmodium falciparum; 7G8): 2 µM

CCN(CCO)CCCC(C)Nc1ccnc2cc(Cl)ccc12 (stereo not shown)
nausea patients (newly diagnosed glioblastoma patients; oral, 400 mg/dose, grade 3, together with: radiotherapy and temozolomide): 14%

CC(C)C[C@@H]1NC(=O)CNC(=O)[C@H](CC(N)=O)NC(=O)[C@H](CCCNC(=N)N)NC(=O)[C@H]([C@@H](C)O)NC(=O)[C@@H]2CSSC[C@@H]3NC(=O)[C@H]([C@@H](C)O)NC(=O)CNC(=O)CNC(=O)[C@H](C(C)C)NC(=O)[C@@H]4CSSC[C@H](NC(=O)[C@H]([C@@H](C)O)NC(=O)[C@H](CSSC[C@H](NC(=O)[C@H](C(C)C)NC(=O)[C@@H]5CCCN5C1=O)C(=O)N[C@@H](CCCCN)C(=O)N[C@@H](CCC(=O)O)C(=O)N[C@@H]([C@@H](C)O)C(=O)N4)NC(=O)CNC(=O)[C@@H]1CCCN1C(=O)[C@H]([C@@H](C)O)NC(=O)[C@H](CC(N)=O)NC3=O)C(=O)N[C@@H](CO)C(=O)N[C@@H](Cc1c[nH]c3ccccc13)C(=O)N1CCC[C@H]1C(=O)N[C@@H](C(C)C)C(=O)N2
remaining peptide (HPLC; ammonium bicarbonate 0.1 M; 180 µM, 7 days, pH 9.0, 37 °C, deamidation stability): 53.4 ± 0.6%

COc1ccc(O)c(/C=N/NC(=O)c2sc3ccccc3c2O)c1
IC50 (Gag-Pol polyprotein, integrase (gag-pol, Human immunodeficiency virus 1, UniProt P12497); strand transfer activity, inhibitor; wild-type integrase): > 100 µM

C[C@@H](NC(=O)N1C(=O)[C@H](Cc2ccnc(N)c2)[C@H]1C(=O)O)C1CCCCC1
incidence of decreased hemoglobin (healthy adult Chinese volunteers; continuous intravenous infusion, 0.3 mg/kg/h, 5-day infusion, CTCAE 5.0 grading): 0%

COc1cccc(Oc2ccccc2NC(=O)CNC(=O)c2cccc3ccccc23)c1
hemoglobin (esterase-deficient SCID mice, male, blood; oral, 100 mg/kg/day, 14 days, toxicity study): 15.9 g/dL and 15.3 g/dL and 14.4 g/dL

C[C@]1(CO)Cc2ncn(-c3ccc(C#N)c(Cl)c3)c2C(=O)O1
subjects with drug-related headache (human, Chinese; 80 mg single dose): 16.7%

O=C1Nc2cc3[nH]nc(-c4ccncc4)c3cc2CN1Cc1ccccc1
patients with back pain (CTCAE v4.03; advanced solid tumour patients; intravenous, 7.2 mg/kg, schedules 1/2): 0%

Clc1ccc(-c2ccccc2)cc1
glucose (Sprague-Dawley rats, female, serum; inhalation, 23 µg/rat, 4 h after exposure): 246 ± 44 mg/dL

CC(C)CC(=O)OC[C@H]1O[C@@](C#N)(c2ccc3c(N)ncnn23)[C@H](O)[C@@H]1O
recovery (plasma protein binding; mouse plasma; 90 µM, time not given): 93.7%

CO[C@H]1C[C@@H]2CC[C@@H](C)[C@@](O)(O2)C(=O)C(=O)N2CCCC[C@H]2C(=O)O[C@H]([C@H](C)C[C@@H]2CC[C@@H](OC(=O)NCCOCCOCCOCCOCCOCCOCCOCCOCCC(=O)N3CCc4cc(Cn5nc(-c6ccc7oc(N)nc7c6)c6c(N)ncnc65)ccc4C3)[C@H](OC)C2)C[C@@H](O)[C@H](C)/C=C(\C)[C@@H](O)[C@@H](OC)C(=O)[C@H](C)C[C@H](C)/C=C/C=C/C=C/1C
dyspnoea incidence (patients with advanced solid tumours; intravenous, 16 mg weekly, grade 3 or higher): 0%

Cc1ccc(-c2ccnc(Nc3ccc(N4CCN(C)CC4)c(C(F)(F)F)c3)n2)cc1
toxicity (Danio rerio embryos; 5 µM, 5 d): 0%

O[C@H]1CCCN[C@@H]1CCCn1cnc2c(Cl)c(Cl)ccc21
Cmax at steady state geometric LS mean (healthy humans, plasma; oral, 150 mg, together with: nintedanib 150 mg): 286 ng/mL

Clc1ccc(Cl)c(-c2ccccc2Cl)c1
log K(PDMS-water) (fresh water; 20 °C, S30-1 sampler, 30 µm): 4.99 ± 0.05

COc1c(O)cc(O)c2c(=O)cc(-c3ccccc3)oc12
Vz/F (Sprague Dawley rat, plasma; oral, 10 g lyophilized powder/kg, high dose): 3490 ± 2170 L/kg

CN[C@H]1CC[C@@H](c2ccc(Cl)c(Cl)c2)c2ccccc21
elimination rate constant (CD-1 mouse, male, plasma; intraperitoneal, 10 mg/kg): 0.000112 s⁻¹

Cc1cccc(Cn2nc(C3CC3)c3c(NC(=O)c4cnc5cc(OCCN6CCN(C)CC6)ccn45)cccc32)n1
all-cause adverse events (CTCAE v4.03, item: blood alkaline phosphatase increased; PD-1/PD-L1 inhibitor-refractory patients; oral, dose not given, together with: pembrolizumab IV every 3 weeks): 26.3%

NC(=O)[C@H]1CCN(c2ncnc(N)c2F)C[C@@H]1N1CCC[C@@H](Nc2cc(Cl)cc(C(F)(F)F)c2)C1=O
grade ≥3 hyponatraemia (B-cell malignancy patients; oral, 164 mg twice daily, dose): 25%

Clc1ccc(Cl)c(-c2cc(Cl)ccc2Cl)c1
log K(PDMS-water) (fresh water; 20 °C, S100 sampler, 100 µm): 5.48 ± 0.04

CC(C)[C@H](C(=O)O[C@H](C#N)c1cccc(Oc2ccccc2)c1)c1ccc(Cl)cc1
CLint (pooled human liver microsomes): 0.454 mL/min/mg protein

CN1CC[C@@H](c2c(O)cc(O)c3c(=O)cc(-c4ccc(C(F)(F)F)cc4Cl)oc23)[C@@H]1CO
patients with adverse event (item: Sepsis; AML; oral, 100 mg, intermittent dosing): 0%

C=CC(=O)Nc1cc(Nc2nccc(Nc3cc(Cl)c(F)cc3C(C)(C)O)n2)c(OC)cc1N1CC[C@@H](N(C)C)C1
patients with adverse event Pneumonia (human; oral, dose not given, phase I clinical): 10.8%

CC(=O)N(C)[C@H]1CCN(C(=O)c2cnc3c(c2)C[C@](C)(c2ccc(F)cc2)N3)C1
adverse event duration (item: fractured finger; human; oral, dose not given, together with: midazolam): 11 days

COc1ccnc(C(=O)N[C@H]2COC(=O)[C@H](Cc3ccccc3)[C@@H](OC(=O)C(C)C)[C@H](C)OC2=O)c1OCOC(=O)C(C)C
KFoc (soil adsorption; soil; pH 5.9, organic carbon 0.9 %): 2250 mL/g

N[C@@H]1c2ccccc2OC12CCN(c1cnc3c(N4CCCc5ncccc54)n[nH]c3n1)CC2
TEAE leading to interruption (advanced metastatic solid tumour patients; oral, 75 mg once daily): 71.4%

CC(=O)c1c(C)c2cnc(Nc3ccc(C4CCN(CCS(C)(=O)=O)CC4)cn3)nc2n(C2CCCC2)c1=O
elimination rate constant (human, plasma; oral, 150 mg, day 1 single dose): 2.22e-05 s⁻¹

CC[C@H](C)[C@H](NC(C)=O)C(=O)N[C@H]1CSSC[C@@H](C(=O)N[C@H](C(N)=O)[C@@H](C)O)NC(=O)[C@H](CCCNC(=N)N)NC(=O)[C@H](Cc2cnc[nH]2)NC(=O)[C@H](C)NC(=O)CNC(=O)[C@H](Cc2c[nH]c3ccccc23)NC(=O)[C@H](CC(=O)O)NC(=O)[C@H](CCC(N)=O)NC(=O)[C@H](Cc2cn(C)c3ccccc23)NC(=O)[C@H](C(C)C)NC1=O
log retention factor (isocratic RP-HPLC; C18 column; pH 7.4, 25 °C, elution method 2; higher = more lipophilic): 0.263

c1ccc2c(c1)cc1ccc3cccc4ccc2c1c34
log K(PDMS-water) (fresh water; 12 (unit not given), 20 °C): 5.21 ± 0.04

COc1ccc(-c2c(-c3ccc(C#N)c(F)c3)nc(N3CCC(N)CC3)n(C)c2=O)cc1F
serious adverse event incidence (item: Neutropenia; human patients; oral, 60 mg, dose expansion): 0%

For quick reference, copied from above:
O=C(NCCCNc1nc(Nc2cccc(NC(=O)N3CCCC3)c2)ncc1I)c1cccs1
solubility (aqueous buffer; 24 h, pH 6.8, 37 °C): < 1 µg/mL

CCc1ccc(CC/C=C/c2ccc3c(c2)C(=O)CC3)cc1
CHCM (Sprague-Dawley rat, male; oral, 120 mg/kg/day, 14 days): 315 g/L

CC[C@H](C)[C@H](NC(=O)[C@H](Cc1ccccc1)NC(=O)[C@H](CCC(=O)O)NC(=O)[C@H](CCCNC(=N)N)NC(=O)[C@H](C)NC(=O)[C@H](C)NC(=O)[C@H](CCC(N)=O)NC(=O)[C@H](CCC(=O)O)NC(=O)[C@H](CCC(=O)O)NC(=O)[C@H](CC(C)C)NC(=O)[C@H](Cc1ccc(O)cc1)NC(=O)[C@H](CO)NC(=O)[C@H](CO)NC(=O)[C@@H](NC(=O)[C@H](CC(=O)O)NC(=O)[C@H](CO)NC(=O)[C@@H](NC(=O)[C@H](Cc1ccccc1)NC(=O)[C@@H](NC(=O)CNC(=O)[C@H](CCC(=O)O)NC(=O)[C@H](C)NC(=O)CCc1cnc[nH]1)[C@@H](C)O)[C@@H](C)O)C(C)C)C(=O)N[C@@H](C)C(=O)N[C@@H](Cc1c[nH]c2ccccc12)C(=O)N[C@@H](CC(C)C)C(=O)N[C@H](C(=O)N[C@@H](CCCNC(=N)N)C(=O)NCC(=O)N[C@@H](CCCNC(=N)N)C(=O)N[C@@H](CCCCNC(=O)COCCOCCNC(=O)COCCOCCNC(=O)CC[C@H](NC(=O)CCCCCCCCCCCCCCCCC(=O)O)C(=O)O)C(=O)NCC(=O)NCC(=O)N[C@@H](CO)C(=O)N[C@@H](CCSC)C(=O)N[C@H](C(=O)N[C@@H](CCCCNc1c(NCCCCCN(O)C(=O)CCC(=O)NCCCCCN(O)C(=O)CCC(=O)NCCCCCN(O)C(C)=O)c(=O)c1=O)C(=O)O)C(C)C)C(C)C [zirconium-89 labelled]
tissue uptake (ex vivo gamma counting; male Sprague-Dawley rats, intestine; intravenous, 5 MBq (1 nmol), 24 h): 0.115 %ID/g and 0.105 %ID/g and 0.145 %ID/g

O=S(=O)(Nc1ccccc1)c1ccc(NC(=S)Nc2ccccc2)cc1
haematocrit (male mouse, blood; oral, 80 mg/kg daily, 14 days): 44%
